Assay results from different studies.
Each line is one published result; not all experiments were run side by side. ± marks the error that the study gave.

Structure (SMILES) | test | test system | conditions | endpoint | result
CC(C)C[C@@H](NC(=O)[C@@H](CCCNC(=N)N)NC(=O)[C@@H](Cc1c[nH]cn1)NC(=O)[C@@H](Cc1c[nH]c2ccccc12)NC(=O)[C@@H](Cc1c[nH]cn1)NC(=O)[C@@H](Cc1ccccc1)NC(=O)[C@H](NC(=O)[C@@H](Cc1ccc(O)cc1)NC(=O)CNC(=O)CNC(=O)CCOCCOCCOCCNC(=O)CN1CCN(CC(=O)O)CCN(CC(=O)O)CC1)[C@H](C)O)C(=O)N[C@H](CC(N)=O)C(=O)N1CCC[C@@H]1C(=O)O [gallium-68 labelled] | gamma counting | C57BL/6 mice, male, intestines | intravenous, 1.85 MBq, 120 min | tissue uptake | 1.19 ± 0.35 %ID/g
CC[C@H](C)[C@H](NC(=O)[C@H](CCCCN)NC(=O)CNC(=O)[C@H](CC(C)C)NC(=O)[C@H](Cc1ccccc1)NC(=O)[C@H](CCCCN)NC(=O)[C@H](CO)NC(=O)[C@H](Cc1ccccc1)NC(=O)[C@H](Cc1c[nH]c2ccccc12)NC(=O)[C@H](CCC(N)=O)NC(=O)[C@@H](NC(=O)[C@H](Cc1ccccc1)NC(=O)CCCCCNC(=O)CN1CCN(CC(=O)O)CCN(CC(=O)O)CCN(CC(=O)O)CC1)C(C)C)C(=O)N[C@@H](CCC(=O)O)C(=O)N1CCC[C@H]1C(=O)N[C@@H](CC(=O)O)C(=O)N[C@H](C(=O)N[C@@H](CO)C(=O)N[C@@H](CCC(N)=O)C(=O)N[C@H](C(=O)N[C@@H](CCC(N)=O)C(=O)N[C@@H](CC(=O)O)C(=O)N1CCC[C@H]1C(=O)N[C@@H](CC(N)=O)C(=O)N[C@@H](CC(=O)O)C(=O)N[C@@H](CCC(N)=O)C(=O)N[C@@H](Cc1ccc(O)cc1)C(=O)N[C@@H](CCC(=O)O)C(=O)N1CCC[C@H]1C(=O)N[C@@H](Cc1ccccc1)C(=O)O)C(C)C)C(C)C [copper-64 labelled] |  | GZMB-/- mice, CT26 tumour-bearing, pancreas | 2 h, vehicle-treated | tissue uptake | 0.73 ± 0.5 %ID/g
CCCC[C@H]1C(=O)N(C)[C@@H](CCCC)C(=O)N[C@@H](CCCNC(=O)CN2CCN(CC(=O)O)CCN(CC(=O)O)CCN(CC(=O)O)CC2)C(=O)N[C@H](C(=O)NCC(N)=O)CSCC(=O)N[C@@H](Cc2ccc(O)cc2)C(=O)N(C)[C@@H](C)C(=O)N[C@@H](CC(N)=O)C(=O)N2CCC[C@H]2C(=O)N[C@@H](Cc2c[nH]cn2)C(=O)N[C@@H](CC(C)C)C(=O)N(C)CC(=O)N[C@@H](Cc2c[nH]c3ccccc23)C(=O)N[C@@H](CO)C(=O)N[C@@H](Cc2c[nH]c3ccccc23)C(=O)N1C [gallium-68 labelled] |  | NOD/SCID mice with CHO-hPD-L1 xenograft, intestine | 10 min post injection | tissue uptake | 2.65 ± 0.81 %ID/g
CC[C@H](C)[C@H](NC(=O)[C@H](CCCNC(=N)N)NC(=O)[C@H](CCCCN)NC(=O)[C@H](Cc1ccc(O)cc1)NC(=O)[C@H](CC(=O)O)NC(=O)[C@H](C)NC(=O)CNC(=O)CCOCCOCCOCCNC(=O)CN1CCN(CC(=O)O)CCN(CC(=O)O)CCN(CC(=O)O)CC1)C(=O)N[C@H](C(=O)N[C@H](C(=O)N[C@@H](CCCCN)C(=O)N[C@H](C(=O)N[C@@H](CC(N)=O)C(N)=O)C(C)C)C(C)C)[C@@H](C)O [copper-64 labelled] | ex vivo gamma counting | C57BL/6J male mice, B16-F10 tumour, heart | intravenous, 1.85 MBq, 5 min | tissue uptake | 2.52 ± 0.421 %ID/g
C[C@H](O)[C@@H](NC(=O)[C@H]1CCCN1C(=O)[C@@H](CCCCN)NC(=O)[C@@H](CO)NC(=O)[C@@H](Cc1ccc(O)cc1)NC(=O)[C@@H](CC(N)=O)NC(=O)CCOCCOCCOCCNC(=O)CN1CCN(CC(=O)O)CCN(CC(=O)O)CCN(CC(=O)O)CC1)C(=O)N[C@H](CC(=O)O)C(=O)N[C@H](CCCNC(=N)N)C(=O)N[C@H](CCC(N)=O)C(=O)N[C@H](Cc1ccc(O)cc1)C(=O)N[C@H](Cc1c[nH]cn1)C(=O)N[C@H](Cc1ccccc1)C(N)=O [gallium-68 labelled] |  | BALB/c nude mice U-87 MG tumour, spleen | intravenous, 1.85 MBq, 1 h, radiolabelled | tissue uptake | 0.14 ± 0.06 %ID/g
COc1cccc(O)c1C(=O)/C=C/c1ccc2cc(N3CCCC3)ccc2c1 |  | C57BL/6J mice, liver | intraperitoneal, 50 mg/kg single, 4 h | tissue concentration | 54 ng/g
CC[C@H](C)[C@H](NC(=O)[C@H](CCCNC(=N)N)NC(=O)[C@H](CCCCN)NC(=O)[C@H](Cc1ccc(O)cc1)NC(=O)[C@H](CC(=O)O)NC(=O)[C@H](C)NC(=O)CNC(=O)CCOCCOCCOCCNC(=O)CN1CCN(CC(=O)O)CCN(CC(=O)O)CCN(CC(=O)O)CC1)C(=O)N[C@H](C(=O)N[C@@H](CC(C)C)C(=O)N[C@@H](CCCCN)C(=O)N[C@H](C(=O)N[C@@H](CC(N)=O)C(N)=O)C(C)C)[C@@H](C)O [copper-64 labelled] | ex vivo gamma counting | C57BL/6J male mice, B16-F10 tumour, bone | intravenous, 1.85 MBq, 100 min | tissue uptake | 0.577 ± 0.124 %ID/g
CSCC[C@H](NC(=O)CNC(=O)[C@H](CCCCN)NC(=O)[C@H](CC(C)C)NC(=O)[C@@H]1CCCN1C(=O)[C@H](CO)NC(=O)[C@H](Cc1c[nH]cn1)NC(=O)[C@H](Cc1c[nH]c2ccccc12)NC(=O)[C@H](CCCNC(=N)N)NC(=O)[C@H](CC(C)C)NC(=O)[C@H](CCCNC(=N)N)NC(=O)[C@H](Cc1c[nH]c2ccccc12)NC(=O)[C@H](CS)NC(=O)CCCCCNC(=O)CN1CCN(CC(=O)O)CCN(CC(=O)O)CCN(CC(=O)O)CC1)C(=O)O [copper-64 labelled] | ex vivo biodistribution | BALB/c nude mice, ovaries | intravenous, dose not given, 1 h, Huh-7 tumour-bearing | tissue uptake | 1.58 %ID/g
